{"data": "Published values of several laboratories", "note": "Compare with care: the assays were run in different laboratories. “And” joins repeats or separate records; there may be more than shown. Numbers after ± are the reported error."}
{"Structure (SMILES)": "Cc1nc2cccc(OCC(C)(C)C(=O)NC(C)C)c2c(N)c1C(=O)[O-].[Na+]", "tested on": "Salmonella typhimurium", "system": "TA1537", "setting": "0.32 mg per plate, without S9, plate incorporation", "quantity": "revertant colonies per plate", "result": "11 ± 3"}
{"Structure (SMILES)": "CN1CC[C@]23c4c5ccc(O)c4O[C@H]2[C@H](O)CC[C@@]3(O)[C@H]1C5", "quantity": "Δlog k, isomerization effect", "result": "-0.07 log units"}
{"Structure (SMILES)": "C[C@@H](N1CN([C@H]2c3ccccc3CSc3ccccc32)n2cc(C(=O)O)c(=O)c(O)c2C1=O)C(F)(F)F", "system": "dog cells", "quantity": "CC50", "result": "> 10 µM"}
{"Structure (SMILES)": "Cc1ccc(N2CCC(N(C)C)CC2)cc1C(=O)N[C@H](C)c1cc(-c2cnn(C)c2)nc2ccccc12", "tested on": "Vero E6", "setting": "500 µM", "quantity": "viability", "result": "1.2% and 0.685% and 1.37%"}
{"Structure (SMILES)": "COc1ccc2c3c1O[C@H]1[C@H](O)C=C[C@H]4[C@@H](C2)N(C)CC[C@@]341", "assay": "PAMPA-BBB", "system": "porcine brain lipid", "setting": "500 µM, 4 h, pH 7.4, 1% DMSO", "quantity": "Papp", "result": "22.6 ×10⁻⁶ cm/s"}
{"Structure (SMILES)": "CCn1ccc(-c2cc(C(C)NC(=O)c3cc(N4CC5CC4CN5C)ccc3C)c3ccccc3n2)n1 (stereo not drawn)", "tested on": "Vero E6", "setting": "250 µM", "quantity": "viability", "result": "1.34% and 2.11% and 0.96%"}
{"Structure (SMILES)": "CC[C@H](C)[C@H](NC(=O)[C@H](CC(=O)O)NC(=O)[C@@H](NC(=O)[C@@H]1CCCN1C(=O)[C@@H](N)CCCNC(=N)N)[C@@H](C)O)C(=O)N[C@@H](CCCCN)C(=O)N[C@H]1CSSC[C@@H]2NC(=O)[C@H](CCCNC(=N)N)NC(=O)CNC(=O)[C@H](CC(N)=O)NC(=O)[C@H]([C@@H](C)O)NC(=O)[C@H](CCCCN)NC(=O)CNC(=O)[C@H](Cc3ccccc3)NC(=O)[C@H](CCCNC(=N)N)NC(=O)[C@H](CO)NC(=O)[C@H](CCCCNC(=O)OCc3cc(OC)c(OC)cc3[N+](=O)[O-])NC(=O)[C@@H]3CSSC[C@@H](C(=O)N[C@@H](Cc4ccccc4)C(=O)O)NC(=O)[C@H](CC(=O)O)NC(=O)[C@H](CSSC[C@H](NC(=O)[C@H](CCC(N)=O)NC(=O)[C@H](Cc4ccc(O)cc4)NC(=O)[C@H](CO)NC(=O)[C@H](CCC(=O)O)NC(=O)[C@H](CO)NC1=O)C(=O)N[C@@H](Cc1ccccc1)C(=O)N1CCC[C@H]1C(=O)N[C@@H](C(C)C)C(=O)N3)NC(=O)[C@H](Cc1ccccc1)NC(=O)CNC(=O)[C@H](CC(N)=O)NC(=O)[C@H](C(C)C)NC2=O", "tested on": "human iPS-derived cardiomyocytes", "setting": "200 nM, after illumination 365 nm", "quantity": "cells with EADs", "result": "47%"}
{"Structure (SMILES)": "Cc1ccc(NC2(C)CN(C)C2)cc1C(=O)N[C@H](C)c1cc(-c2cnn(C)c2)nc2ccccc12", "tested on": "Vero E6", "setting": "7.812 µM", "quantity": "viability", "result": "88.2% and 90.2% and 89.2%"}
{"Structure (SMILES)": "CCCCCC1=C(NCC)C(=O)C(C/C=C(\\C)CCC=C(C)C)=C(O)C1=O", "tested on": "human peripheral blood lymphocytes", "setting": "5 µg/mL, 24 h, without S9", "quantity": "cytostasis", "result": "-25%"}
{"Structure (SMILES)": "Cc1ccc(OCCN(C)C)cc1C(=O)N[C@H](C)c1cc(-c2ccc(C#N)nc2)nc2ccccc12", "tested on": "Vero E6", "setting": "31.25 µM", "quantity": "viability", "result": "41.2% and 29.2%"}
{"Structure (SMILES)": "CC1(F)CN(C(=O)Cn2c(=O)c(C(=O)NCc3ccc(Cl)cc3)cc3nc(N4CCN(CCN)C4=O)cnc32)C1", "tested on": "Epstein-Barr virus", "assay": "qPCR", "setting": "retest 2", "how to read": "relative to: CC50 over EC50", "quantity": "selectivity index", "result": 77.2}
{"Structure (SMILES)": "O=C1NC2(CC2)COc2ncc(F)cc2[C@H]2COCCN2c2ccn3ncc1c3n2", "system": "Sprague-Dawley rat, male, kidneys", "setting": "oral, 20 mg/kg/day, 4 weeks dosing, end of recovery", "quantity": "organ-to-body weight ratio", "result": "0.713 ± 0.069%"}
{"note": "Some of these lines once more:"}
{"Structure (SMILES)": "Cc1ccc(NC2(C)CN(C)C2)cc1C(=O)N[C@H](C)c1cc(-c2cnn(C)c2)nc2ccccc12", "tested on": "Vero E6", "setting": "7.812 µM", "quantity": "viability", "result": "88.2% and 90.2% and 89.2%"}
